Measurements pooled from the literature.
Protocols differ between the studies behind these lines. Values joined by “and” are separate records of one study, mostly repeats; a detail may differ. Numbers after ± are the reported error. Converted amounts (≈) assume the structure as drawn.
Chain of UniProt P06276 (whole entry, looked up): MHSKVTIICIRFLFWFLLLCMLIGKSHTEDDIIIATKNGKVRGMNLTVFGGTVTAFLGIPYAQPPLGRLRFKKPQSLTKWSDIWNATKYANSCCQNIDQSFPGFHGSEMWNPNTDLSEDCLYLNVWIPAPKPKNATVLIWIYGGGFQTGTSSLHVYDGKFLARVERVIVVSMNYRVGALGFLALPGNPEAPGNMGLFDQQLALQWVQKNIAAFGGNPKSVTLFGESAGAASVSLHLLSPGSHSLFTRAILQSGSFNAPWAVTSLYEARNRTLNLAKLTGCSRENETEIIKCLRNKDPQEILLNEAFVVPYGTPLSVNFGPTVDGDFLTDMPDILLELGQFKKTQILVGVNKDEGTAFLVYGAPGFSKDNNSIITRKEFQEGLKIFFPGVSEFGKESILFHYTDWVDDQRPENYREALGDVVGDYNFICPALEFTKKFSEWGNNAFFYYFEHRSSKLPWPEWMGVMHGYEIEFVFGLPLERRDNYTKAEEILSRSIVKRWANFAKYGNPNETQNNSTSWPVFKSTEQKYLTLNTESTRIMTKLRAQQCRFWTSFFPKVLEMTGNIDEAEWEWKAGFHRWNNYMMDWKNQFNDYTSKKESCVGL

Compound	tested on	assay	system	conditions	how to read	quantity	value
NC(=O)[C@H]1CCN(c2ncnc(N)c2F)C[C@@H]1N1CCC[C@@H](Nc2cc(Cl)cc(C(F)(F)F)c2)C1=O	–	–	B-cell malignancy patients	oral, 164 mg twice daily, dose	–	any grade ≥3 adverse event	25%
Clc1ccc(-c2ccc(Cl)c(Cl)c2)cc1Cl	–	–	PDMS-water partitioning	PCB compilation	relative to: maximum over minimum K	literature range factor	2
CO[C@H]1C[C@@H]2CC[C@@H](C)[C@@](O)(O2)C(=O)C(=O)N2CCCC[C@H]2C(=O)O[C@H]([C@H](C)C[C@@H]2CC[C@@H](OC(=O)NCCOCCOCCOCCOCCOCCOCCOCCOCCC(=O)N3CCc4cc(Cn5nc(-c6ccc7oc(N)nc7c6)c6c(N)ncnc65)ccc4C3)[C@H](OC)C2)C[C@@H](O)[C@H](C)/C=C(\C)[C@@H](O)[C@@H](OC)C(=O)[C@H](C)C[C@H](C)/C=C/C=C/C=C/1C	–	–	patients with advanced solid tumours	intravenous, 10 mg weekly, grade 3 or higher	–	dyspnoea incidence	12.5%
CNC(=O)c1cc(Oc2ccc(NC(=O)Nc3cc(C(C)(C)C)nn3-c3ccc4ncccc4c3)c(F)c2)ccn1	–	any related SAE, NCI CTC v3.0	human patients	oral, 300 mg twice daily, dose at onset	–	related SAE	25%
COc1ncccc1-c1cnn2ccc(N3CCN(C(=O)OC(C)C)CC3)nc12	–	–	mouse nerve ligation model, plasma	oral, 3 mg/kg, 30 min after last dose, repeat dosing day 2	–	drug concentration	3.5 µM
COc1cc2c(cc1OC)CN(CCc1ccc(NC(=O)c3cccc4c(=O)c5cccc(OC)c5[nH]c34)cc1)CC2	–	–	CD-1 mouse, male, plasma	intraperitoneal, 3 mg/kg	–	Tmax	2 h
N[C@@H](Cc1ccc(O)c(O)c1)C(=O)O	–	–	human, plasma	oral, dose not given, carbidopa/levodopa every 4 h, with: opicapone	relative to: after over before opicapone	fluctuation index ratio	0.55
CCC(CC)(NC(=O)c1ccc(C2CC2)c(Cc2ccc(F)cc2)n1)C(=O)NCCOCCOCCNC(=O)c1ccc2c(c1)C(=O)OC21c2ccc(N)c(S(=O)(=O)O)c2Oc2c1ccc(N)c2S(=O)(=O)O	–	–	PBS	100 nM, pH 7.4, 0.1% DMSO	–	fluorescence quantum yield	77.1%
CCN(CCO)CCCC(C)Nc1ccnc2cc(Cl)ccc12 (centres unmarked)	–	–	newly diagnosed glioblastoma patients	oral, 200 mg/dose, grade 1, with: radiotherapy and temozolomide	–	nausea patients	66%
COc1ccc2nc3cc(Cl)ccc3c(Nc3cc(CN4CCCC4)c(O)c(CN4CCCC4)c3)c2n1	–	–	mouse, blood	oral, 57 mg/kg, tolerability, mean	–	neutrophils	14.8%
CCCCCCCCCCCCCCCC(=O)N[C@@H](CCC(=O)NCCCC[C@H](NC(=O)[C@H](CC(=O)O)NC(=O)[C@H](CO)NC(=O)[C@@H](NC(=O)[C@H](Cc1ccccc1)NC(=O)[C@@H](NC(=O)CNC(=O)[C@H](CCC(N)=O)NC(=O)[C@H](CO)NC(=O)[C@@H](N)Cc1c[nH]cn1)[C@@H](C)O)[C@@H](C)O)C(=O)N[C@@H](CO)C(=O)N[C@@H](CCC(=O)O)C(=O)N[C@@H](Cc1ccc(O)cc1)C(=O)N[C@@H](CC(C)C)C(=O)N[C@@H](CC(=O)O)C(=O)N[C@@H](CO)C(=O)N[C@@H](CCC(=O)O)C(=O)N[C@@H](CCCNC(=N)N)C(=O)N[C@@H](C)C(=O)N[C@@H](CCCNC(=N)N)C(=O)N[C@@H](CC(=O)O)C(=O)N[C@@H](Cc1ccccc1)C(=O)N[C@H](C(=O)N[C@@H](C)C(=O)N[C@@H](Cc1c[nH]c2ccccc12)C(=O)N[C@@H](CC(C)C)C(=O)N[C@@H](CCC(=O)O)C(=O)N[C@@H](C)C(=O)NCC(=O)NCC(=O)O)C(C)C)C(=O)O	–	item: decreased appetite	human, CrCl ≥30 to <45 mL/min	subcutaneous, 100 µg single dose	–	treatment-related adverse events	18.2%
Cn1cncc1-c1c(F)cncc1NC(=O)c1c(N)nn2cc(F)cnc12	–	–	human patients	oral, 180 mg once daily, 2 weeks on 1 week off	–	patients grade ≥3 creatinine increase	0%
COc1c(O)cc(O)c2c(=O)cc(-c3ccccc3)oc12	–	–	Sprague Dawley rat, plasma	oral, 3.34 g lyophilized powder/kg, low dose	–	Vz/F	1870 ± 997 L/kg
CC[C@H](C)[C@H](NC(=O)[C@H](Cc1ccccc1)NC(=O)[C@H](CCC(=O)O)NC(=O)[C@H](CCCNC(=N)N)NC(=O)[C@H](C)NC(=O)[C@H](C)NC(=O)[C@H](CCC(N)=O)NC(=O)[C@H](CCC(=O)O)NC(=O)[C@H](CCC(=O)O)NC(=O)[C@H](CC(C)C)NC(=O)[C@H](Cc1ccc(O)cc1)NC(=O)[C@H](CO)NC(=O)[C@H](CO)NC(=O)[C@@H](NC(=O)[C@H](CC(=O)O)NC(=O)[C@H](CO)NC(=O)[C@@H](NC(=O)[C@H](Cc1ccccc1)NC(=O)[C@@H](NC(=O)CNC(=O)[C@H](CCC(=O)O)NC(=O)[C@H](C)NC(=O)CCc1cnc[nH]1)[C@@H](C)O)[C@@H](C)O)C(C)C)C(=O)N[C@@H](C)C(=O)N[C@@H](Cc1c[nH]c2ccccc12)C(=O)N[C@@H](CC(C)C)C(=O)N[C@H](C(=O)N[C@@H](CCCNC(=N)N)C(=O)NCC(=O)N[C@@H](CCCNC(=N)N)C(=O)N[C@@H](CCCCNC(=O)COCCOCCNC(=O)COCCOCCNC(=O)CC[C@H](NC(=O)CCCCCCCCCCCCCCCCC(=O)O)C(=O)O)C(=O)NCC(=O)NCC(=O)N[C@@H](CO)C(=O)N[C@@H](CCCCNC(=O)[C@H](CCCCNc1c(NCCCCCN(O)C(=O)CCC(=O)NCCCCCN(O)C(=O)CCC(=O)NCCCCCN(O)C(C)=O)c(=O)c1=O)Nc1c(NCCCCCN(O)C(=O)CCC(=O)NCCCCCN(O)C(=O)CCC(=O)NCCCCCN(O)C(C)=O)c(=O)c1=O)C(=O)O)C(C)C [zirconium-89 labelled]	–	ex vivo gamma counting	male Sprague-Dawley rat, knee	intravenous, 1 nmol, 24 h	–	tissue uptake	0.389 %ID/g
CC(C)C[C@@H]1NC(=O)[C@H](CCCCN)NC(=O)[C@H](CC(N)=O)NC(=O)[C@H](CCCNC(=N)N)NC(=O)[C@H]([C@@H](C)O)NC(=O)[C@@H]2CSSC[C@@H]3NC(=O)[C@H]([C@@H](C)O)NC(=O)CNC(=O)CNC(=O)[C@H](C(C)C)NC(=O)[C@@H]4CSSC[C@H](NC(=O)[C@H]([C@@H](C)O)NC(=O)[C@H](CSSC[C@H](NC(=O)[C@H](C(C)C)NC(=O)[C@@H]5CCCN5C1=O)C(=O)NCC(=O)N[C@@H](CCC(=O)O)C(=O)N[C@@H]([C@@H](C)O)C(=O)N4)NC(=O)CNC(=O)[C@@H]1CCCN1C(=O)[C@H]([C@@H](C)O)NC(=O)[C@H](CC(N)=O)NC3=O)C(=O)N[C@@H](CO)C(=O)N[C@@H](Cc1c[nH]c3ccccc13)C(=O)N1CCC[C@H]1C(=O)N[C@@H](C(C)C)C(=O)N2	–	HPLC	ammonium bicarbonate	180 µM, 14 days, pH 9.0, 25 °C, deamidation stability	–	remaining peptide	97.3 ± 1.1%
CN1CCN(c2ccc(Nc3nccc(-c4ccccc4)n3)cc2C(F)(F)F)CC1	–	–	zebrafish embryos	50 µM, 5 d	–	toxicity	0%
CCOc1cc(Oc2ccc(C(F)(F)F)cc2Cl)ccc1[N+](=O)[O-]	–	–	rat male	15 mg/kg, 8 days	–	final body weight	144 ± 8.31 g
Cc1ncnc2c1ccn2[C@@H]1C[C@H](Oc2cc(C(F)F)c(F)c3c2CNCC3)[C@@H](O)[C@H]1O	–	–	patients	any grade	relative to: patients	Nausea incidence	11%
O=C(Nc1ccccc1)C1CCN(C(=O)Oc2cccnc2)CC1	–	psychotropic effects VAS	healthy women	100 mg	relative to: pre-dose baseline, direction not given	change in Colors score	0.1
Clc1ccc(-c2ccccc2)cc1	–	–	Sprague-Dawley rats, female, serum	inhalation, 23 µg/rat, 4 h after exposure	–	glucose	246 ± 44 mg/dL
c1ccc2c(c1)-c1cccc3c1c-2cc1ccccc13	–	–	fresh water	12 (unit not given), 20 °C	–	log K(PDMS-water)	5.18 ± 0.04

Compound	tested on	assay	system	conditions	how to read	quantity	value
CC[C@H](C)[C@H](NC(=O)[C@H](C)NC(=O)[C@H](CCCCN)NC(=O)[C@H](CC(C)C)NC(=O)[C@H](C)NC(=O)[C@@H](NC(=O)[C@H](Cc1c[nH]cn1)NC(=O)[C@H](CC(C)C)NC(=O)[C@@H](NC(=O)[C@@H](NC(=O)[C@H](CCCCN)NC(=O)[C@H](C)NC(=O)[C@H](C)NC(=O)[C@H](CO)NC(=O)[C@H](CCCCN)NC(=O)[C@H](Cc1ccccc1)NC(=O)[C@@H](NC(=O)[C@H](CCCCN)NC(=O)[C@H](CC(C)C)NC(=O)[C@H](Cc1ccccc1)NC(=O)[C@H](CO)NC(=O)[C@H](CCCCN)NC(=O)[C@H](Cc1c[nH]c2ccccc12)NC(=O)[C@H](CCCCN)NC(C)=O)[C@@H](C)O)[C@@H](C)O)C(C)C)[C@@H](C)O)C(=O)N[C@@H](CO)C(=O)N[C@@H](CO)C(N)=O	–	–	BALB/c mouse	topical on skin, dose not given	–	fraction of applied dose absorbed systemically	~3.4%
O=C1Nc2cc3[nH]nc(-c4ccncc4)c3cc2CN1Cc1ccccc1	–	item: infusion-related reaction	patients with advanced solid tumours	intravenous, dose not given	–	patients with TEAE	22%
CN1CC[C@@H](c2c(O)cc(O)c3c(=O)cc(-c4ccc(C(F)(F)F)cc4Cl)oc23)[C@@H]1CO	–	item: Chills	B-cell malignancies	oral, 150 mg, intermittent dosing	–	patients with adverse event	0%
Clc1ccc(Cl)c(-c2cc(Cl)ccc2Cl)c1	–	–	Sprague Dawley rat	intraperitoneal, 1 mg/kg, 3 weeks	–	body weight	176 g
Clc1ccc(-c2ccc(Cl)c(Cl)c2)c(Cl)c1	–	–	fresh water	20 °C, S30-2 sampler, 30 µm	–	log K(PDMS-water)	5.71 ± 0.02
COc1ccc(-c2c(-c3ccc(C#N)c(F)c3)nc(N3CCC(N)CC3)n(C)c2=O)cc1F	–	item: Pruritus	relapsed/refractory marginal zone lymphoma patients	oral, 60 mg, any grade, dose expansion	–	treatment-related adverse event incidence	0%
COc1ccccc1OCC(O)CN1CCN(CC(=O)Nc2c(C)cccc2C)CC1 (centres unmarked)	Plasmodium falciparum	–	7G8	–	–	IC50	5.01 µM
C[C@@H](NC(=O)N1C(=O)[C@H](Cc2ccnc(N)c2)[C@H]1C(=O)O)C1CCCCC1	–	–	healthy adult Chinese volunteers	continuous intravenous infusion, 2.25 mg/kg/h, 5-day infusion, CTCAE 5.0 grading	–	incidence of administration site extravasation	0%
COc1cc2c(Oc3ccc4[nH]c(C)cc4c3F)ccnc2cc1OCC1(N)CC1	–	–	paediatric recurrent refractory sarcoma	8 mg/kg	–	grade 1 or 2 Neutropenia	6.7%
C[C@@H]1N=C(c2ccccc2F)c2cc(Br)ccc2-n2cnc(C(=O)O)c21	–	–	mouse liver S9 fraction	10 µM, 2 h, glucuronidation	–	parent remaining	~85%
c1ccc2c(c1)-c1ccc3ccc4cccc5cc-2c1c3c45	–	–	PDMS-water partitioning	PAH compilation	relative to: maximum over minimum K	literature range factor	3
COc1ccccc1N1CCN(CCCCNC(=O)c2ccc3ccccc3c2)CC1	Plasmodium falciparum	–	3D7	–	–	IC50	2 µM
O=S(=O)(Nc1ccccc1)c1ccc(NC(=S)Nc2ccccc2)cc1	–	–	female mouse, blood	oral, 5 mg/kg daily, 14 days	–	potassium level	8 mmol/L
C[C@]1(CO)Cc2ncn(-c3ccc(C#N)c(Cl)c3)c2C(=O)O1	–	investigator-assessed	human	0.7 mg single dose	–	subjects with drug-related TEAEs	0%
COc1cccc2c1CCCC2CCCN1CCN(C2CCCCC2)CC1 (centres unmarked)	–	–	CD-1 mouse, male, lung	intraperitoneal, 30 mg/kg	–	elimination rate constant	6.22e-05 s⁻¹
COc1cccc(Oc2ccccc2NC(=O)CNC(=O)c2cccc3ccccc23)c1	–	–	esterase-deficient SCID mice, male, blood	oral, 40 mg/kg/day, 14 days, toxicity study	–	hemoglobin	13.6 g/dL and 12.8 g/dL and 13.9 g/dL
O=C(O)CCCOc1ccc(F)cc1-c1cc(-c2ccccc2C(F)(F)F)n(-c2ccccc2)n1	–	item: T-Bil	Crl:CD(SD) rats, female, blood	iv, 25 µg/kg, 14 days	–	blood chemistry	0.13 ± 0.01 mg/dL
C[C@@H](N[C@H]1CCCC[C@@H]1NC(=O)c1ccc(Cl)cc1)c1cccc2ccccc12	Cholinesterase (BCHE, Homo sapiens, UniProt P06276)	inhibitor	–	–	–	IC50	6.85 µM
O=C(NCCCNc1nc(Nc2cccc(NC(=O)N3CCCC3)c2)ncc1I)c1cccs1	–	–	Labrasol	24 h, 37 °C	–	solubility	1950 ± 120 µg/mL (≈ 3.3 mM)
CC1(C)[C@H](C=C(Cl)Cl)[C@H]1C(=O)OCc1cccc(Oc2ccccc2)c1	–	–	pooled human liver microsomes	–	–	CLint	1.61 mL/min/mg protein

Some of these lines once more:
Compound	tested on	assay	system	conditions	how to read	quantity	value
Clc1ccc(-c2ccc(Cl)c(Cl)c2)c(Cl)c1	–	–	fresh water	20 °C, S30-2 sampler, 30 µm	–	log K(PDMS-water)	5.71 ± 0.02
COc1ccc(-c2c(-c3ccc(C#N)c(F)c3)nc(N3CCC(N)CC3)n(C)c2=O)cc1F	–	item: Pruritus	relapsed/refractory marginal zone lymphoma patients	oral, 60 mg, any grade, dose expansion	–	treatment-related adverse event incidence	0%
